Experimental data of several laboratories.
Each numbered part is a random draw from the data of one study; scales do not carry over between parts. Substitutions count along the parent as printed.

Block 1 — method: DHFR PCA, deep sequencing; medium: yeast; with: (+)-ABA 200 µM; reference: wild-type fitted maximum; reading: higher = stronger binding
Target: ABI1, truncated, D143A, DHFR fusion (Arabidopsis thaliana)
Notes: methotrexate growth selection, single substitutions
Starting sequence: PYL1, truncated, DHFR fusion (Arabidopsis thaliana); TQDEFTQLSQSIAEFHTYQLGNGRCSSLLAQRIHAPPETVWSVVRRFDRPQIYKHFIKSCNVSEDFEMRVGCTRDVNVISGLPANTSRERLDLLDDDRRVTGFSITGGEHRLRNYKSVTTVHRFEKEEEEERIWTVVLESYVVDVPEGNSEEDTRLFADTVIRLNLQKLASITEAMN; partner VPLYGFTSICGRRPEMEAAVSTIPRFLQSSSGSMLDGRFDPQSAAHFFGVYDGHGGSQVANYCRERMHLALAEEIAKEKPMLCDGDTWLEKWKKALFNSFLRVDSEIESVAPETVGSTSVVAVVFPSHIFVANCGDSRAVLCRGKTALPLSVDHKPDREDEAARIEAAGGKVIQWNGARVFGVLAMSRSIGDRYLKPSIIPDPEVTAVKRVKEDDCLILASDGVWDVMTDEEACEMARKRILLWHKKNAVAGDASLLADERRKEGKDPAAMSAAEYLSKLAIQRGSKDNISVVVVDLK
Under “relative binding score”, `R99K` is recorded as 111%.
`D153L` — result for “relative binding score”: 2.31%.
For `R74F`, “relative binding score” read 0.616%.
`T1I` — result for “relative binding score”: 101%.
`Q167F` — result for “relative binding score”: 78.3%.
Under “relative binding score”, `P36R` is recorded as 94.1%.
Under “relative binding score”, `A175K` is recorded as 96.4%.
`Q2F` — result for “relative binding score”: 101%.
`K168A` — result for “relative binding score”: 92.5%.
`L169Q` — result for “relative binding score”: 8.92%.
`R88K`: “relative binding score” 100%.

Block 2 — method: RNA Bind-n-Seq; molecule type: RNA; medium: in vitro; concentration: 200 nM; notes: whole 134-nt RNA, ends assumed; with: 150 mM LiCl; reference: input library; reading: higher = stronger binding; library: 7-deaza-guanosine replaces G
Target: Ras GTPase-activating protein-binding protein 1, full length (G3BP1, Homo sapiens, UniProt Q13283)
Chain of UniProt Q13283 (whole entry, looked up): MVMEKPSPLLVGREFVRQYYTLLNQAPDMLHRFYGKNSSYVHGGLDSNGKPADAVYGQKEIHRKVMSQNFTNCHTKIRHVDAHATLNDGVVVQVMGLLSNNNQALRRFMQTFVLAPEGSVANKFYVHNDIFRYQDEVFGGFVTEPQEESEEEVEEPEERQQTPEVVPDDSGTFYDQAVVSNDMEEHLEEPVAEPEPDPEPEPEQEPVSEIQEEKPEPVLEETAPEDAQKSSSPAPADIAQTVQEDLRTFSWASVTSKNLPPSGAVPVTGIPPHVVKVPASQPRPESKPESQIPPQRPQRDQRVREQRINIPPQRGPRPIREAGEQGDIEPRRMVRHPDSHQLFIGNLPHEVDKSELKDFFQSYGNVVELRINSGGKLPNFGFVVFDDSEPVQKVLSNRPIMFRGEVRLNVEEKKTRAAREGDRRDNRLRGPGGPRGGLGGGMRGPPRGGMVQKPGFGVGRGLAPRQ
With `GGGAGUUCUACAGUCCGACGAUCUGUGCUACACAUCGUAUGUACCGAAUCGGGGAAAAAGGGGAAAAAAAGGGGAAAAAAAGGGGAAAGUAUUAUGUUACGCCGUUCGGAUCUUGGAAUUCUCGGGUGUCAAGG` the log2 enrichment was 0.752.
With `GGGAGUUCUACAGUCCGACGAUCUCCUGUGCUACACAUCGUAUGUACCGAAUCGGGGCCCCCGGGCCCCCGGGGCCCCCGGGGAAAGUAUUAUGUUACGCCGUUCGGAUCUGCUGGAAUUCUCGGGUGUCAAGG` the log2 enrichment was -1.61.
The log2 enrichment of `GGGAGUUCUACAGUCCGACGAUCUCAAGUCCUGUGCUACACAUCGUAUGUACCGAAUCGGUGGUUUUUUUGGAAAGGAAAGUAUUAUGUUACGCCGUUCGGAUCUGCACUUCCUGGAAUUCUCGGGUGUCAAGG` is reported as -0.178.
The log2 enrichment of `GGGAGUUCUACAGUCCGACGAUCCCUGUGCUACACAUCGUAUGUACCGAAUCGGGCCCCCCCGGCCCCCCCGGGCCCCCCCGGAAAGUAUUAUGUUACGCCGUUCGGAUCUGCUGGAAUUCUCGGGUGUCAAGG` is reported as 0.31.
`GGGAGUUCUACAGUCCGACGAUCAAGUCCUGUGCUACACAUCGUAUGUACCGAAUCGGGAAAAGGGGAAAAGGGAAAAGGAAAGUAUUAUGUUACGCCGUUCGGAUCUGCACUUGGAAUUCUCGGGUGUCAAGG` gave a log2 enrichment of 0.389.
`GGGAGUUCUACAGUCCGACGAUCCCUGUGCUACACAUCGUAUGUACCGAAUCGGAAAAAAAGGGAAAAAAAGGGAAAAAAAGGGAAAGUAUUAUGUUACGCCGUUCGGAUCUGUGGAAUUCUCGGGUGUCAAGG` gave a log2 enrichment of 0.0218.
`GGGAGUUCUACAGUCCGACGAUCGCAGGAAGUAAAAACAAGUGGAAAUGCUUCGGAUAGUGGCAGGGGUGGGGGUUGCUAAGGAAAGGGUGGGAUGGGAGUGGGUAAAGAGUUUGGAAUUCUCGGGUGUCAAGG` gave a log2 enrichment of -0.227.
For `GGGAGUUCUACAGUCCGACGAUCUCAAGUCCUGUGCUACACAUCGUAUGUACCGAAUCGGGGAGGGGUGGGGAGGGGAAAGUAUUAUGUUACGCCGUUCGGAUCUGCACUUCCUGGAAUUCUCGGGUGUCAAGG`, the log2 enrichment was 0.234.

Block 3 — target: CCNB1, cyclin fold, Cln2 fusion (human); method: yeast growth competition, sequencing; medium: yeast; notes: strong parent motif; reference: not given; reading: higher = stronger binding
Starting sequence: DBF4 docking peptide (human); DDIVSKLVFDFVE; partner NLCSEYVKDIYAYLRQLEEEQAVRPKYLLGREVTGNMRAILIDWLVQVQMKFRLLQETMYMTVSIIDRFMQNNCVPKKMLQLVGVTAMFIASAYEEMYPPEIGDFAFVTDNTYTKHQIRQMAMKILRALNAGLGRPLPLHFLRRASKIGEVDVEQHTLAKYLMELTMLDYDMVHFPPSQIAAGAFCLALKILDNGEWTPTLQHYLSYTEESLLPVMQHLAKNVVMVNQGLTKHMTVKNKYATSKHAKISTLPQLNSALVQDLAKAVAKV
For `DDIVSKLVADFVE [F9A]`, “normalised enrichment score” read -0.202.
`DDIVSKLAFDFVE [V8A]` — result for “normalised enrichment score”: 0.167.
`DDIVSKLVFAFVE [D10A]`: “normalised enrichment score” 0.658.
`DDAVSKLVFDFVE [I3A]` — result for “normalised enrichment score”: 0.903.
Under “normalised enrichment score”, `ADIVSKLVFDFVE [D1A]` is recorded as 1.19.
Under “normalised enrichment score”, `DDIVSKLVFDAVE [F11A]` is recorded as 1.47.

Single results of other studies
For `PhoQ, residues 284 288 289 292 302 303 DDMDFR`, the fold induction was 1.1 (PhoP, residues 12 14 15 18 19 HEGLL (Escherichia coli, UniProt P23836); Sort-seq, measured: YFP reporter; E. coli; PhoQ-PhoP variant library, with: 10 µM Mg2+; reference: high Mg2+ state, higher = stronger signaling).

A few entries again (block 1):
For `R74F`, “relative binding score” read 0.616%.
Under “relative binding score”, `A175K` is recorded as 96.4%.
Under “relative binding score”, `P36R` is recorded as 94.1%.
